Experimental data collected from several papers.
Every numbered part comes from another study and shows a few of its results, in no order. Several values in a cell are separate wells, animals, samples, runs or records.
UniProt Q06418, sequence (whole entry, looked up): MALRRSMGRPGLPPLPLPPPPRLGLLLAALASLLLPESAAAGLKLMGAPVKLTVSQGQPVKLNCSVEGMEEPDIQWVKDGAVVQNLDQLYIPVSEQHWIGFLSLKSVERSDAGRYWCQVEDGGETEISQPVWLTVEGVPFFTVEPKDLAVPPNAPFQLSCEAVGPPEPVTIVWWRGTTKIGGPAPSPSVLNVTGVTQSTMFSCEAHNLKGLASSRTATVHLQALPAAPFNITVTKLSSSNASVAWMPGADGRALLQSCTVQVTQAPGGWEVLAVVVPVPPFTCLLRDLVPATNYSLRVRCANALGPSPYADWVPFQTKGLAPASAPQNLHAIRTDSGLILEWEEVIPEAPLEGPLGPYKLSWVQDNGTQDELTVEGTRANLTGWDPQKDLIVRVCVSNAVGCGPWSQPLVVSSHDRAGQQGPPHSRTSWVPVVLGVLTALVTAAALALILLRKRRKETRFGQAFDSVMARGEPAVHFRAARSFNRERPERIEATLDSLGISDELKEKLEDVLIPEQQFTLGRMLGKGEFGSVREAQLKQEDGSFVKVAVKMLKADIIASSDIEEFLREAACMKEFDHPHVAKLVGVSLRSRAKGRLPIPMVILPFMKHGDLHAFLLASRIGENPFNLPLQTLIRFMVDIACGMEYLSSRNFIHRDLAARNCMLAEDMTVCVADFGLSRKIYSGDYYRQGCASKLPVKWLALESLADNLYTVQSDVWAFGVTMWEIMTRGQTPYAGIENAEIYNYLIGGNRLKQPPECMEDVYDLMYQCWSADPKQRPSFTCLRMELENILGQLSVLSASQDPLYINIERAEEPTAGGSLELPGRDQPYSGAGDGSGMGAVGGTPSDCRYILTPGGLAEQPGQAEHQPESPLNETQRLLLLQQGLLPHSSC
UniProt P15056, sequence (whole entry, unmodified, looked up): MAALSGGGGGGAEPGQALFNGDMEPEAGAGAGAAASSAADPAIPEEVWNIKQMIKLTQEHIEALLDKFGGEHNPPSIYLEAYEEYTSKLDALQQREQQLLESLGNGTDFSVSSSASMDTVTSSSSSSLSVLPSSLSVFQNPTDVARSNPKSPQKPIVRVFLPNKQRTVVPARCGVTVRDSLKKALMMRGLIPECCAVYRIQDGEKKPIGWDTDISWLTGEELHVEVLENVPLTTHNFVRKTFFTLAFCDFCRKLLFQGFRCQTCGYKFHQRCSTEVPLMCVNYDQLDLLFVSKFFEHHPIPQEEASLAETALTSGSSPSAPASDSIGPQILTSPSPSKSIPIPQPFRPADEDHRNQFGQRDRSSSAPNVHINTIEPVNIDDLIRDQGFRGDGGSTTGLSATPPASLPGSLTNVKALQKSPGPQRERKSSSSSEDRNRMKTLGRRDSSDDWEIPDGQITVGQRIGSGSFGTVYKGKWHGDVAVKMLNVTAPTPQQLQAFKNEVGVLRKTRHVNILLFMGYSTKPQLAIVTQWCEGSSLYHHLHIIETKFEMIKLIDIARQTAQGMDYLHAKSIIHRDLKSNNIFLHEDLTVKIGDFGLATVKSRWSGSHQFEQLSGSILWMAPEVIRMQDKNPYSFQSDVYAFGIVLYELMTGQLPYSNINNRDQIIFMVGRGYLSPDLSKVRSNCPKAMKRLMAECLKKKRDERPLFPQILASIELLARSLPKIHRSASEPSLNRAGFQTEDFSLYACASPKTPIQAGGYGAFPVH
UniProt P53667, sequence (whole entry, looked up): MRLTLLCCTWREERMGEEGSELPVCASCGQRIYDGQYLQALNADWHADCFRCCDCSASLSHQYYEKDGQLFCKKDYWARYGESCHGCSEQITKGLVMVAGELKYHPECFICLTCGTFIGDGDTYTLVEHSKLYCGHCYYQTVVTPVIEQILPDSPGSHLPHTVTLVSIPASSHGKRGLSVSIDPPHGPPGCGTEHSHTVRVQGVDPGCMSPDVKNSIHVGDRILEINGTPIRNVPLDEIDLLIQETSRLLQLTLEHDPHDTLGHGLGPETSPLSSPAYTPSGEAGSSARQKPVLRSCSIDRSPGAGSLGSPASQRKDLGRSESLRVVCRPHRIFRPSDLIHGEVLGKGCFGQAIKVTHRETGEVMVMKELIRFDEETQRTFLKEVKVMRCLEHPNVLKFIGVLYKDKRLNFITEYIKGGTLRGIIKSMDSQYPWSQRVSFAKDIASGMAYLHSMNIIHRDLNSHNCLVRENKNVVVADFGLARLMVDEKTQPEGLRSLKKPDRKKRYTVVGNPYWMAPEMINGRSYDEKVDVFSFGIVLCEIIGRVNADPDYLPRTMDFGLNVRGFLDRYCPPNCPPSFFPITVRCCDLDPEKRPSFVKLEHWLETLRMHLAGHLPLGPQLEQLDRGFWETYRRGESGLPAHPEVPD
UniProt P42680, sequence (whole entry, looked up): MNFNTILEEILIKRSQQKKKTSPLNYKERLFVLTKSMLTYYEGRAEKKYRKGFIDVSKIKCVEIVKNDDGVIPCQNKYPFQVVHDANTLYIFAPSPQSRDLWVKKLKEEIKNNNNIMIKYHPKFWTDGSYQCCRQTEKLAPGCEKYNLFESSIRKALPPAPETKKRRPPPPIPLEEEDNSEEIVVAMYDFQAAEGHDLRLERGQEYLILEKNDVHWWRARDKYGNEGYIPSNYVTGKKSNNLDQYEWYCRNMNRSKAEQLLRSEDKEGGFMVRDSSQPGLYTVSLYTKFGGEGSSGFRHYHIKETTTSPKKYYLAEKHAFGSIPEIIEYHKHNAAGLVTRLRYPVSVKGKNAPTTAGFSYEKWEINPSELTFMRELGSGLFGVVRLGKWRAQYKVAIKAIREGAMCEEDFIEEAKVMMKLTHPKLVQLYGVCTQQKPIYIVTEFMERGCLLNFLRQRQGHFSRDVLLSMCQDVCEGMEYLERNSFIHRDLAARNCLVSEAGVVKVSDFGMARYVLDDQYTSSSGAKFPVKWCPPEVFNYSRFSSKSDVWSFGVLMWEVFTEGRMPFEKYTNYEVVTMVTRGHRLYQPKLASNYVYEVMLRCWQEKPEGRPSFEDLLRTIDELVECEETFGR
UniProt P49674, sequence (whole entry, looked up): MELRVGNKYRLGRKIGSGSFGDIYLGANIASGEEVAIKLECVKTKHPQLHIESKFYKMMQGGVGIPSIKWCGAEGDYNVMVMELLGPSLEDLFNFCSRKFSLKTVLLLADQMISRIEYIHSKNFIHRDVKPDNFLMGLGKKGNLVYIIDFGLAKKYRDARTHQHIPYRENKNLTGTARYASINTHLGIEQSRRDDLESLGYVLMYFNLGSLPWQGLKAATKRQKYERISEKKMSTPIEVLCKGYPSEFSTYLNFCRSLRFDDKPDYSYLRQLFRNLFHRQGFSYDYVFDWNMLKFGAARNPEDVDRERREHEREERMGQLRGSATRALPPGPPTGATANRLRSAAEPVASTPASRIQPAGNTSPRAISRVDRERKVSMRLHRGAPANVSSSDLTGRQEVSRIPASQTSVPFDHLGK
UniProt Q96SB4, sequence (whole entry, looked up): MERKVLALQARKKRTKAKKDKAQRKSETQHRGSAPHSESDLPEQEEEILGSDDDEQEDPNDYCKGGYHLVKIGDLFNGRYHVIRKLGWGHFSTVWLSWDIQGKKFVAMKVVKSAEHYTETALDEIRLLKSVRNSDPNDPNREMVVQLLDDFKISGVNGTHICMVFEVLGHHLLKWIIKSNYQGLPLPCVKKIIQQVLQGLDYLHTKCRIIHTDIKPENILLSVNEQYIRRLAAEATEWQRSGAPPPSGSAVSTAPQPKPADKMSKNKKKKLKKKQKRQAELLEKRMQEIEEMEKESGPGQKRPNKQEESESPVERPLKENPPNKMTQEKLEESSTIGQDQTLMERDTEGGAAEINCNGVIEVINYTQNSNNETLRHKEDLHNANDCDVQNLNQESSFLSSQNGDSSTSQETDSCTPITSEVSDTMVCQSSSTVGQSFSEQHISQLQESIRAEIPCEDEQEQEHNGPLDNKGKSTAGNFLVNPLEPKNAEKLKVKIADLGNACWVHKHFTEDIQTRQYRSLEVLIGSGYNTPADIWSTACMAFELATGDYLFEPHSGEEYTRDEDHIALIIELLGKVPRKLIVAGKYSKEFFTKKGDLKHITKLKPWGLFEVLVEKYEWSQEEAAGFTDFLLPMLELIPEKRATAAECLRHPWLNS
UniProt Q9HCP0, sequence (whole entry, looked up): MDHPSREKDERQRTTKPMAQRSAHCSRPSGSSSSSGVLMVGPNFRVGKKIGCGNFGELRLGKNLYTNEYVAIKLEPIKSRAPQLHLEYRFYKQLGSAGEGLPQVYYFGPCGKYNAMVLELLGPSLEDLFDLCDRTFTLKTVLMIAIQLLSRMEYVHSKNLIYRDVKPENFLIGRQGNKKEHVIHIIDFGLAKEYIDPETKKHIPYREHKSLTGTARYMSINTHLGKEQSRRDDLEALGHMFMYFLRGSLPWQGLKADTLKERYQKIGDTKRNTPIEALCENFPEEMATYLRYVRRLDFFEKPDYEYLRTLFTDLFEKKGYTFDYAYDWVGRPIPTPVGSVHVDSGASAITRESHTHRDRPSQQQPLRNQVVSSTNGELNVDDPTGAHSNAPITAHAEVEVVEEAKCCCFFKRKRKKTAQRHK
UniProt Q99640, sequence (whole entry, looked up): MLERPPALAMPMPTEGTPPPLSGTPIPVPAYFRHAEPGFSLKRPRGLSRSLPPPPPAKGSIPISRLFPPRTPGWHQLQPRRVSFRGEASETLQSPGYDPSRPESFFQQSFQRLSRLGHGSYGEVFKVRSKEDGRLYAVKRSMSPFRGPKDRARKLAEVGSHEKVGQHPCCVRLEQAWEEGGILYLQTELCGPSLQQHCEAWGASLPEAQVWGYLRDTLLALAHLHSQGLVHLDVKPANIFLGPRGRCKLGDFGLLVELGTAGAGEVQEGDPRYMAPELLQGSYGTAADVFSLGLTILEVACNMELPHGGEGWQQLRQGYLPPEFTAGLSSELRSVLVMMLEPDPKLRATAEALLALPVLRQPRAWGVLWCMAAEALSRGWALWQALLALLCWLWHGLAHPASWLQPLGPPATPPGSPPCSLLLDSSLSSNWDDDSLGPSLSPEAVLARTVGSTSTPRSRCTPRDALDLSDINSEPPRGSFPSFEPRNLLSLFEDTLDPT

Block 1 — observed: cell-free assay; technique: competition with immobilised ligand; concentration: 1 µM; measurement: remaining binding
SMILES: O=S(=O)(NC1CCC(c2cc(F)ccc2F)(S(=O)(=O)c2ccc(Cl)cc2)CC1)C(F)(F)F (stereo not drawn)
target = PRKACB (Homo sapiens, UniProt P22694); result = 98%
target = CDC42BPA (Homo sapiens, UniProt Q5VT25); result = 91%
target = PIK3CB (Homo sapiens, UniProt P42338); result = 100%
target = Tyrosine-protein kinase ABL1, non-phosphorylated (ABL1, Homo sapiens, UniProt P00519, T315I); result = 90%
target = MAP4K1 (Homo sapiens, UniProt Q92918); result = 96%
target = PI4KB (Homo sapiens, UniProt Q9UBF8); result = 82%
target = CDK5 (Homo sapiens, UniProt Q00535); result = 100%
target = TYRO3 (Homo sapiens, UniProt Q06418); result = 70%
target = DAPK1 (Homo sapiens, UniProt P53355); result = 95%
target = SYK (Homo sapiens, UniProt P43405); result = 89%
target = FLT4 (Homo sapiens, UniProt P35916); result = 100%
target = BUB1 (Homo sapiens, UniProt O43683); result = 100%
target = PKMYT1 (Homo sapiens, UniProt Q99640); result = 100%
target = PIM1 (Homo sapiens, UniProt P11309); result = 100%
target = Ribosomal protein S6 kinase alpha-5, C-terminal kinase domain (RPS6KA5, Homo sapiens, UniProt O75582); result = 71%
target = DAPK2 (Homo sapiens, UniProt Q9UIK4); result = 96%
target = MAP3K7 (Homo sapiens, UniProt O43318); result = 100%
target = CHEK1 (Homo sapiens, UniProt O14757); result = 100%
target = MAPK6 (Homo sapiens, UniProt Q16659); result = 100%
target = LIM domain kinase 1 (LIMK1, Homo sapiens, UniProt P53667); result = 86%
target = BRAF (Homo sapiens, UniProt P15056, V600E); result = 86%
target = SGK1 (Homo sapiens, UniProt O00141); result = 83%
target = CSNK1G1 (Homo sapiens, UniProt Q9HCP0); result = 86%
target = ANKK1 (Homo sapiens, UniProt Q8NFD2); result = 92%
target = CDK9 (Homo sapiens, UniProt P50750); result = 91%

Block 2 — observed: enzyme activity; action: inhibitor; concentration: 0.5 µM; relative to: control; measurement: remaining activity
Compound: Cc1cn(-c2cc(NC(=O)c3ccc(C)c(Nc4nccc(-c5cccnc5)n4)c3)cc(C(F)(F)F)c2)cn1
target = IGF1R (Homo sapiens, UniProt P08069); result = 88.4%
target = CLK1 (Homo sapiens, UniProt P49759); result = 73.8%
target = PRKCQ (Homo sapiens, UniProt Q04759); result = 75.4%
target = SIK2 (Homo sapiens, UniProt Q9H0K1); result = 103%
target = TYRO3 (Homo sapiens, UniProt Q06418); result = 96.5%
target = FLT1 (Homo sapiens, UniProt P17948); result = 99.2%
target = EPHA2 (Homo sapiens, UniProt P29317); result = 10.8%
target = CLK2 (Homo sapiens, UniProt P49760); result = 91.4%
target = MAP3K20 (Homo sapiens, UniProt Q9NYL2); result = 17.8%
target = CSNK1E (Homo sapiens, UniProt P49674); result = 101%
target = JAK1 (Homo sapiens, UniProt P23458); result = 104%
target = Cyclin-dependent kinase 2, with cyclin E (CDK2, Homo sapiens, UniProt P24941); result = 98.9%
target = PAK6 (Homo sapiens, UniProt Q9NQU5); result = 107%
target = CAMK1 (Homo sapiens, UniProt Q14012); result = 104%
target = SGK2 (Homo sapiens, UniProt Q9HBY8); result = 103%
target = PAK1 (Homo sapiens, UniProt Q13153); result = 117%
target = CAMKK1 (Homo sapiens, UniProt Q8N5S9); result = 91.1%
target = SRPK1 (Homo sapiens, UniProt Q96SB4); result = 98.1%
target = RPS6KA3 (Homo sapiens, UniProt P51812); result = 104%
target = PRKCZ (Homo sapiens, UniProt Q05513); result = 87%
target = CSNK1D (Homo sapiens, UniProt P48730); result = 89.3%
target = EPHA6 (Homo sapiens, UniProt Q9UF33); result = 47%
target = TEC (Homo sapiens, UniProt P42680); result = 88.2%

Block 3 — technique: ATPlite; measurement: viability
SMILES: C[C@@H]1CN(c2ccc(-c3cc(C(=O)NCCOCCOCCOCCOCCOCCOCCOCCOCCOCCNC(=O)/C=C/c4[nH]cc(C(=O)N[C@@H](CC(N)=O)c5ccc(F)c(Cl)c5)c4-c4ccc(Cl)cc4F)ccc3F)cc2NC(=O)c2c[nH]c(=O)cc2C(F)(F)F)C[C@H](C)N1C
cell line = MV4-11; setting = 1 µM, 5 days; how to read = relative to: DMSO; result = 12.1%
cell line = MV4-11; setting = 0.01 µM, 5 days; how to read = relative to: DMSO; result = 84.8% and 56% and 76.5%
cell line = MV4-11 expressing HiBiT-WDR5; setting = 2 nM to 10 µM, 24 h; result = no effect
cell line = MV4-11; setting = 0.0215 µM, 5 days; how to read = relative to: DMSO; result = 54.8% and 71.6% and 42.7%
cell line = MV4-11; setting = 4.64 µM, 5 days; how to read = relative to: DMSO; result = 5.69% and 9.65% and 4.43%

Mixed results
Compound = CCC[C@@H]1NC(=O)CSC[C@@H](C(=O)OCC)N(C)C(=O)[C@H](CC(C)C)NC(=O)[C@@H](C)N(C)C(=O)[C@@H](CC(C)C)NC(=O)[C@H](C)N(C)C(=O)[C@@H]2CCCN2C(=O)[C@@H](CC(C)C)NC(=O)CN(C)C1=O; test system = hydrocarbon/water; measurement = logD; result = 0.477

Excerpt of the above (block 1):
target = SGK1 (Homo sapiens, UniProt O00141); result = 83%
target = CSNK1G1 (Homo sapiens, UniProt Q9HCP0); result = 86%
target = ANKK1 (Homo sapiens, UniProt Q8NFD2); result = 92%
